Measured values pooled from the literature.
Each line is one published result; not all experiments were run side by side. ± gives the spread as reported. Values after ≈ are worked out from the molar mass of the structure shown.

C=C(C)C[C@H](OC)[C@H](O)C(=O)N[C@@H](OC)[C@@H]1CC(=O)C(C)(C)[C@@H](C[C@H](O)[C@@H](C)[C@H]2Cc3c(C)c(O)cc(O)c3C(=O)O2)O1
IC50 (IMR-90; cell growth or viability): 57 nM

CC[C@H](C)[C@H](NC(=O)[C@H](CCCCN)NC(=O)[C@H](CCCCN)NC(=O)[C@H](CC(C)C)NC(=O)[C@H](Cc1c[nH]c2ccccc12)NC(=O)CN)C(=O)NCC(=O)N[C@@H](CCCCN)C(=O)N[C@@H](CCCCN)C(=O)N[C@H](C(=O)N[C@@H](CCC(=O)O)C(=O)N[C@@H](CCCNC(=N)N)C(=O)N[C@H](C(=O)NCC(=O)N[C@@H](CCC(N)=O)C(=O)N[C@@H](Cc1c[nH]cn1)C(=O)N[C@H](C(=O)N[C@@H](CCCNC(=N)N)C(=O)N[C@@H](CC(=O)O)C(=O)N[C@@H](C)C(=O)N[C@H](C(=O)N[C@H](C(=O)N[C@@H](CCC(N)=O)C(=O)N[C@H](C(=O)N[C@H](C(=O)NCC(=O)N[C@H](C(=O)N[C@@H](C)C(=O)N[C@@H](CCC(N)=O)C(=O)N[C@@H](CCC(N)=O)C(=O)N[C@@H](C)C(=O)N[C@@H](C)C(=O)N[C@@H](CC(N)=O)C(=O)N[C@H](C(=O)N[C@@H](C)C(=O)N[C@@H](C)C(=O)N[C@H](C(=O)N[C@@H](CC(C)C)C(=O)N[C@@H](CCCCN)C(N)=O)[C@@H](C)O)C(C)C)C(C)C)[C@@H](C)CC)[C@@H](C)O)[C@@H](C)CC)[C@@H](C)O)[C@@H](C)O)C(C)C)[C@@H](C)CC
MIC (Escherichia coli; isolate RKI 131/03, CAMHB): 4 µg/mL (≈ 0.952 µM)

Nc1ncnc2c1ncn2C1CCC(OC(C(=O)O)P(=O)(O)O)C1 (racemic)
fold resistance (HIV-1 reverse transcriptase M184V; enzyme activity, inhibitor; together with: poly(rU)·oligo(dA), [3H]dATP; reference: mutant over wild type): 1.7 fold

O=C(NC1CCN(c2ncnc3[nH]cnc23)CC1)c1cccc(NS(=O)(=O)c2ccc(C(F)(F)F)cc2)c1
inhibition (monkeypox virus E1/E12; 0.7812 µM): 6.92%

CC[C@H](C)[C@H](NC(=O)CNC(=O)[C@@H](NC(=O)[C@H](CCCNC(=N)N)NC(=O)[C@H](CO)NC(=O)[C@H](Cc1c[nH]cn1)NC(=O)[C@H](CCCNC(=N)N)NC(=O)[C@H](CS)NC(=O)CNC(=O)[C@@H](NC(=O)[C@H](CCCNC(=N)N)NC(=O)[C@H](Cc1ccccc1)NC(=O)[C@H](Cc1c[nH]cn1)NC(=O)[C@@H](NC(=O)[C@H](Cc1ccccc1)NC(=O)[C@H](CC(C)C)NC(=O)[C@H](CC(C)C)NC(=O)[C@H](CCC(N)=O)NC(=O)[C@H](CCC(N)=O)NC(=O)[C@H](CC(C)C)NC(=O)[C@@H](NC(=O)[C@H](CCCNC(=N)N)NC(=O)[C@@H](NC(=O)[C@H](CC(C)C)NC(=O)[C@H](C)NC(=O)[C@H](CCC(=O)O)NC(=O)[C@@H](NC(=O)CNC(=O)[C@@H](NC(=O)[C@H](Cc1c[nH]c2ccccc12)NC(=O)[C@@H](NC(=O)[C@@H](N)CC(=O)O)[C@@H](C)O)[C@@H](C)O)C(C)C)[C@@H](C)CC)[C@@H](C)CC)[C@@H](C)CC)[C@@H](C)CC)[C@@H](C)CC)C(=O)N[C@H](C(=O)N[C@@H](CCC(N)=O)C(=O)N[C@@H](CCC(N)=O)C(=O)N[C@@H](CCCNC(=N)N)C(=O)N[C@@H](CCCNC(=N)N)C(=O)N[C@H](C(=O)N[C@@H](CCCNC(=N)N)C(=O)N[C@@H](CC(N)=O)C(=O)NCC(=O)N[C@@H](C)C(=O)N[C@@H](CO)C(=O)N[C@@H](CCCCN)C(=O)N[C@@H](CO)C(=O)O)[C@@H](C)O)[C@@H](C)CC
low membrane potential mitochondria (JC-1 flow cytometry; purified mouse mitochondria; 1 µM, 15 min): 73%

CC[C@H](C)[C@H](NC(=O)[C@H](CCCCN)NC(=O)[C@H](CC(=O)O)NC(=O)[C@H](CC(C)C)NC(=O)[C@H](Cc1ccc(O)cc1)NC(=O)[C@@H](NC(=O)[C@H](CO)NC(=O)[C@H](Cc1ccc(O)cc1)NC(=O)[C@H](CC(=O)O)NC(=O)[C@H](CO)NC(=O)[C@@H](NC(=O)[C@H](Cc1ccccc1)NC(=O)[C@@H](NC(=O)CNC(=O)[C@H](CCC(=O)O)NC(=O)C(C)(C)NC(=O)[C@H](Cc1ccc(O)cc1)NC(=O)[C@@H](N)[C@@H](C)O)[C@@H](C)O)[C@@H](C)O)[C@@H](C)CC)C(=O)N[C@@H](C)C(=O)N[C@@H](CCC(N)=O)C(=O)NC(C)(C)C(=O)N[C@@H](CCC(=O)O)C(=O)N[C@@H](Cc1ccccc1)C(=O)N[C@H](C(=O)N[C@@H](CC(N)=O)C(=O)N[C@@H](Cc1c[nH]c2ccccc12)C(=O)N[C@@H](CC(C)C)C(=O)N[C@@H](CC(C)C)C(=O)N[C@@H](C)C(=O)NCC(=O)NCC(=O)N1CCC[C@H]1C(=O)N[C@@H](CO)C(=O)N[C@@H](CO)C(=O)NCC(=O)N[C@@H](C)C(=O)N1CCC[C@H]1C(=O)N1CCC[C@H]1C(=O)N1CCC[C@H]1C(=O)N[C@@H](CO)C(=O)O)C(C)C
duration of hypoglycaemia (measured: blood glucose; db/db mouse, non-fasted; subcutaneous, 25 nmol/kg): ≤ 2 h

CC[C@H](C)[C@@H]1NC(=O)[C@H](CC(=O)O)NC(=O)[C@H]([C@@H](C)O)NC(=O)[C@@H]2CSSC[C@@H]3NC(=O)[C@H](CC(C)C)NC(=O)[C@H](CC(N)=O)NC(=O)[C@H](CC(C)C)NC(=O)[C@H](CCCNC(=N)N)NC(=O)[C@H](Cc4ccc(O)cc4)NC(=O)[C@H](CCCCN)NC(=O)[C@H](CCSC)NC(=O)[C@H](CO)NC(=O)[C@H]([C@@H](C)O)NC(=O)[C@H](CCCNC(=N)N)NC(=O)[C@H](CSSC[C@H](NC(=O)[C@H]([C@@H](C)O)NC(=O)[C@H](CCCCN)NC(=O)[C@H](CCCNC(=N)N)NC3=O)C(=O)NCC(=O)N[C@@H](CO)C(=O)N[C@H](C(=O)O)CSSC[C@H](NC(=O)[C@@H](NC(=O)[C@@H](N)CCCNC(=N)N)[C@@H](C)O)C(=O)N[C@@H](CCCCN)C(=O)N[C@@H](CC(=O)O)C(=O)N[C@@H](CC(C)C)C(=O)N[C@@H]([C@@H](C)CC)C(=O)N3CCC[C@H]3C(=O)N[C@@H](C(C)C)C(=O)N[C@@H](CO)C(=O)N[C@@H](CCC(=O)O)C(=O)N2)NC(=O)[C@H](CCCNC(=N)N)NC1=O
association time constant (KcsA-Shaker chimera channel; two-electrode voltage clamp; Xenopus oocytes; 5 nM, 0 mV): 126 ± 13 s

Cc1cc(/C=C/C#N)cc(C)c1-n1cnc2cnc(Nc3ccc(C#N)cc3)nc21
EC50 (HIV-1; viral replication, single-round infection; RT mutant M184V): 0.2 ± 0.01 nM

COCCn1ccn2cc(C(=O)NCc3ccc(F)cc3F)c(=O)c(O)c2c1=O
EC50 (human immunodeficiency virus 1; single-round vector infection; integrase S230N): 4.5 ± 0.6 nM

Cc1ccc(NS(=O)(=O)c2c(C(=O)N3CCCCCC3)c(C)n(C)c2C)c(Cl)c1
relative infection (Monkeypox virus; Vero C1008, wild type; 30 µM, 72 h; reference: untreated): 0%

CC(C)N1CCn2cc(C(=O)NCc3ccc(F)cc3F)c(=O)c(O)c2C1=O
EC50 (human immunodeficiency virus 1; single-round vector infection; integrase G118R): 20.2 ± 1.4 nM

Cc1cc(/C=C/C#N)cc(C)c1Nc1nc(Nc2ccc(C#N)cc2)ncc1N
EC50 (HIV-1; viral replication, single-round infection; RT mutant Y181I): 19 ± 2.6 nM

O=C(NCc1ccc(F)cc1F)c1cn2c(c(O)c1=O)C(=O)N(CCCCCO)CC2
EC50 (human immunodeficiency virus 1; single-round vector infection; integrase N155H): 66.9 ± 14 nM

CC[C@H](C)[C@H](NC(=O)[C@H](CC(C)C)NC(=O)[C@@H](NC(=O)[C@@H](NC(=O)[C@H](CC(C)C)NC(=O)[C@H](CCCCN)NC(=O)[C@@H](N)CCCCN)[C@@H](C)CC)[C@@H](C)O)C(=O)N[C@@H](Cc1ccccc1)C(=O)N[C@@H](CCCCN)C(=O)N[C@@H](CCCCN)C(=O)N[C@H](C(=O)N[C@@H](CCCNC(=N)N)C(=O)N[C@@H](CCC(=O)O)C(=O)N[C@@H](CCCCN)C(=O)N[C@@H](CCCCN)C(=O)N[C@@H](CCCCN)C(=O)N[C@@H](CCC(=O)O)C(=O)N[C@@H](CS)C(=O)N[C@@H](CC(C)C)C(=O)N[C@H](C(=O)O)C(C)C)[C@@H](C)O
time to peak (TTX-sensitive sodium channel; resurgent sodium current, open-channel blocker, whole-cell patch clamp; mouse hippocampal CA3 neurons; 200 µM intracellular, 22 °C): 1.9 ± 0.2 ms

CSCC[C@@H]1NC(=O)CNC(=O)[C@H](CCC(=O)O)NC(=O)[C@@H]2CSSC[C@H](NC(=O)[C@@H](N)Cc3ccc(O)cc3)C(=O)N[C@@H](CCC(N)=O)C(=O)N[C@@H](CCCCN)C(=O)N[C@@H](Cc3c[nH]c4ccccc34)C(=O)N[C@@H](CCSC)C(=O)N[C@@H](Cc3c[nH]c4ccccc34)C(=O)N[C@@H]([C@@H](C)O)C(=O)N[C@H]3CSSC[C@H](NC(=O)[C@H](C(C)C)NC1=O)C(=O)N[C@@H](CCCNC(=N)N)C(=O)N[C@@H](CC(C)C)C(=O)N[C@@H](Cc1c[nH]c4ccccc14)C(=O)N[C@H](C(=O)N[C@@H](CCCCN)C(=O)N[C@@H](CCCCN)C(=O)N[C@@H](CCCCN)C(=O)N[C@@H](CC(C)C)C(=O)N[C@@H](Cc1c[nH]c4ccccc14)C(=O)O)CSSC[C@H](NC(=O)[C@H](CCCCN)NC(=O)[C@H](CCCNC(=N)N)NC(=O)[C@H](CCC(=O)O)NC(=O)[C@H](CO)NC(=O)[C@H](CC(=O)O)NC3=O)C(=O)N2
inhibition (ND7/23; peak TTX-sensitive sodium current; 0.003 µM, 1 peak): 22.4 ± 10.5%

COCCCCCCn1ccn2cc(C(=O)NCc3ccc(F)cc3F)c(=O)c(O)c2c1=O
EC50 (human immunodeficiency virus 1; single-round vector infection; integrase G140S/Q148H): 253 ± 23.4 nM

A few entries again:
O=C(NC1CCN(c2ncnc3[nH]cnc23)CC1)c1cccc(NS(=O)(=O)c2ccc(C(F)(F)F)cc2)c1
inhibition (monkeypox virus E1/E12; 0.7812 µM): 6.92%

COCCCCCCn1ccn2cc(C(=O)NCc3ccc(F)cc3F)c(=O)c(O)c2c1=O
EC50 (human immunodeficiency virus 1; single-round vector infection; integrase G140S/Q148H): 253 ± 23.4 nM
